Measured values pooled from the literature.
Each line is one published result; not all experiments were run side by side. Several values in a cell are separate wells, animals, samples, runs or records. ± marks the error that the study gave. Where no end group is shown, it is not given here. The star is where a group is joined. * marks the point of attachment.
HLA-DRA/HLA-DRB1: HLA-DRA/HLA-DRB1 (Homo sapiens, UniProt P01903+P01911)
F2: Prothrombin (F2, Bos taurus, UniProt P00735)
Sequence of UniProt P12821 (whole entry, looked up): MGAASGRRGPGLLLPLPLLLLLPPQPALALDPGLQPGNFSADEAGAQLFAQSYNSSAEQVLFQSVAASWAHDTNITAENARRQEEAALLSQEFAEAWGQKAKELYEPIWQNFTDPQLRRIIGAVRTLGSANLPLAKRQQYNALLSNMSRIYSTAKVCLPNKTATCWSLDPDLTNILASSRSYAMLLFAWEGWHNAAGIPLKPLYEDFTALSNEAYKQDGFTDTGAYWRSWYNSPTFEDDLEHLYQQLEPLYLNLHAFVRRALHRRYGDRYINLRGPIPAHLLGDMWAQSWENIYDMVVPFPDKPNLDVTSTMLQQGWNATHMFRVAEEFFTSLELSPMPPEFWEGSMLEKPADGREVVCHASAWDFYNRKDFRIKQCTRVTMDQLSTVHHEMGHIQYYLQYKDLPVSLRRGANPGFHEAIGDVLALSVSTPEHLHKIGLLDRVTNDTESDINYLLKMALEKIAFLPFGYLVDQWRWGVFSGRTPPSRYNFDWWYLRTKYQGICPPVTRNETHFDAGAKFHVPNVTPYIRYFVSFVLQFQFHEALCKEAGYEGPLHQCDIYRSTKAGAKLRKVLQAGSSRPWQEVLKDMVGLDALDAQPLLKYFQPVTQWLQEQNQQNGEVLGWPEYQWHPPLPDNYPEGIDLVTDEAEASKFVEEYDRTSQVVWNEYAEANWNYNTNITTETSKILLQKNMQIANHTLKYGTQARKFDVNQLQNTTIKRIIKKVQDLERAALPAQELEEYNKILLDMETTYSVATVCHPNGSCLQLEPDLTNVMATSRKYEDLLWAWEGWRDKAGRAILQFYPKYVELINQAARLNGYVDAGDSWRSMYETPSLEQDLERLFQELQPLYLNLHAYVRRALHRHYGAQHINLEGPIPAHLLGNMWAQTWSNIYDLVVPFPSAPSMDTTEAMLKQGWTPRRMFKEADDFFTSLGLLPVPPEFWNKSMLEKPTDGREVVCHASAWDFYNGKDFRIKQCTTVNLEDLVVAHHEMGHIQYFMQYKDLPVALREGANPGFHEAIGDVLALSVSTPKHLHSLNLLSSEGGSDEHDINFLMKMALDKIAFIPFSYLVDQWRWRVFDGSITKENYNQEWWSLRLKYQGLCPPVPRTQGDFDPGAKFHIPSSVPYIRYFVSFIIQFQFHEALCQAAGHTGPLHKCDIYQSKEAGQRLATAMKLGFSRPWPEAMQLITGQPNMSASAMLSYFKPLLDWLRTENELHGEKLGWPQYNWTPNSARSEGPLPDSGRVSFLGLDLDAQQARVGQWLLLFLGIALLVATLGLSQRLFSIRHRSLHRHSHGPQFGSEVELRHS
Sequence of UniProt Q14654 (whole entry, looked up): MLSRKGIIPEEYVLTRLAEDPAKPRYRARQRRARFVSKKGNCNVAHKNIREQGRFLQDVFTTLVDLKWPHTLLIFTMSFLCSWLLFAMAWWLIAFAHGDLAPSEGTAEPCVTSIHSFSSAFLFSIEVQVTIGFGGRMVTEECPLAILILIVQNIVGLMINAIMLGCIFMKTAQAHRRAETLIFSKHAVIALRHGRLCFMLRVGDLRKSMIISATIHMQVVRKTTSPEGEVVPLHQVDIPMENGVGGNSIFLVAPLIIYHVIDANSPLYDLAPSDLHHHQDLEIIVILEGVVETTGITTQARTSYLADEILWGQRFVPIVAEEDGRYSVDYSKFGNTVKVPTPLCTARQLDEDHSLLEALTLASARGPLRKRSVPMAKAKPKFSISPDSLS
Sequence of UniProt Q585F3 (whole entry, looked up): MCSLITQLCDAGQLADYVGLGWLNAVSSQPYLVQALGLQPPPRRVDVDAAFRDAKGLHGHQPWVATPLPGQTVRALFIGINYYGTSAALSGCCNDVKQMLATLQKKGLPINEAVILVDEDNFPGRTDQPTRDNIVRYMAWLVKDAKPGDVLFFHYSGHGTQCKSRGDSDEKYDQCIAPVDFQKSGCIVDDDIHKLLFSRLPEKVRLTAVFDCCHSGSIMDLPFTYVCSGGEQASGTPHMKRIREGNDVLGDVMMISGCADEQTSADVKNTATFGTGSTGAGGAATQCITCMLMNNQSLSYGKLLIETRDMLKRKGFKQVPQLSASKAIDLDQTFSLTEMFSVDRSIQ
Sequence of UniProt P22303 (whole entry, looked up): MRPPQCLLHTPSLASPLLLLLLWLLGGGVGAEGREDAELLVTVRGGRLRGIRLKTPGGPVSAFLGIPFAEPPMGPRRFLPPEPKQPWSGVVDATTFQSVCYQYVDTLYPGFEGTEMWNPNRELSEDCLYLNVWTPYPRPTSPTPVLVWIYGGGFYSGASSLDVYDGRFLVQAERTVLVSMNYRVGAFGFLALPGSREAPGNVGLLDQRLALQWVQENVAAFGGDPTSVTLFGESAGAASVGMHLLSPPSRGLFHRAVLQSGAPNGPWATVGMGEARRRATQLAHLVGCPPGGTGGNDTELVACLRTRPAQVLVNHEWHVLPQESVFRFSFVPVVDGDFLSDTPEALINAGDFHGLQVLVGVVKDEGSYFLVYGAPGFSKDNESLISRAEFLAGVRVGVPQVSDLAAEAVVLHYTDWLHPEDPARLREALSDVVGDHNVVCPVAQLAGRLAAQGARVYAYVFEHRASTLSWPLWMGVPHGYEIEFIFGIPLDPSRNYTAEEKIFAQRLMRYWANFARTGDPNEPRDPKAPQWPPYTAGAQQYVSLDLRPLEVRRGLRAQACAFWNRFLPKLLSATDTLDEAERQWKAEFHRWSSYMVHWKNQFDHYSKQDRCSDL
Sequence of UniProt P93026 (whole entry, looked up): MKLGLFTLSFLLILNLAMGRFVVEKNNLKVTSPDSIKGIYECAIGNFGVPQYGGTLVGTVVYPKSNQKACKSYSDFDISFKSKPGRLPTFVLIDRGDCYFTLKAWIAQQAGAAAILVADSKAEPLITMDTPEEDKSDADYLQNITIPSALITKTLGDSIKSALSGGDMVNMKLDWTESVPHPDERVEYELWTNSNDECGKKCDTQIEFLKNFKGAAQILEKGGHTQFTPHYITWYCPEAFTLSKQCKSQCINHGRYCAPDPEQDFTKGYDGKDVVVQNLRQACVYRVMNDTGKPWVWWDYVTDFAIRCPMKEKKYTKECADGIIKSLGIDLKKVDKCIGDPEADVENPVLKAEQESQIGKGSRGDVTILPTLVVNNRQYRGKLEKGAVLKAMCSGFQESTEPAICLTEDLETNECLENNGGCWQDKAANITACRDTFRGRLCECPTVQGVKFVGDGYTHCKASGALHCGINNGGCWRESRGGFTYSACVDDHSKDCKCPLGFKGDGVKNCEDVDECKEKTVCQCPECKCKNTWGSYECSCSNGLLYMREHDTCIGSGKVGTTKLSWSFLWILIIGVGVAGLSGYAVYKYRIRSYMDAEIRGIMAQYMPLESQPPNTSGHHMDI
Sequence of UniProt P25123 (whole entry, looked up): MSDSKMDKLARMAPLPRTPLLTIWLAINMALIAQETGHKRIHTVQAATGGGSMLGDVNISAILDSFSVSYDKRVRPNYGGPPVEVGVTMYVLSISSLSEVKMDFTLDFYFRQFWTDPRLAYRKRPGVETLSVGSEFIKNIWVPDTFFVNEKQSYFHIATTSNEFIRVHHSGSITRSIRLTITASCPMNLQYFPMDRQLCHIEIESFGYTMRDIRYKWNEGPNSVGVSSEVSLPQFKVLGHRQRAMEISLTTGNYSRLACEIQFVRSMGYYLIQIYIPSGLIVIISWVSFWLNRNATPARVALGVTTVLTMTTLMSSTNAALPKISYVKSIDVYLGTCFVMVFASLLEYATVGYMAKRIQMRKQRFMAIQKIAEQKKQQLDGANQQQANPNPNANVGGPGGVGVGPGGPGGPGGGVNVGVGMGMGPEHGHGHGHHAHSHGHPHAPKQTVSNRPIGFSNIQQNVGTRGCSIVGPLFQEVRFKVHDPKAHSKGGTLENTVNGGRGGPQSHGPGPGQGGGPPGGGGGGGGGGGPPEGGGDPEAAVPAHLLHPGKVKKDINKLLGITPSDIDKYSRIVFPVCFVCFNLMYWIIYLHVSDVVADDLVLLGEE
Sequence of UniProt P41586 (whole entry, unmodified, looked up): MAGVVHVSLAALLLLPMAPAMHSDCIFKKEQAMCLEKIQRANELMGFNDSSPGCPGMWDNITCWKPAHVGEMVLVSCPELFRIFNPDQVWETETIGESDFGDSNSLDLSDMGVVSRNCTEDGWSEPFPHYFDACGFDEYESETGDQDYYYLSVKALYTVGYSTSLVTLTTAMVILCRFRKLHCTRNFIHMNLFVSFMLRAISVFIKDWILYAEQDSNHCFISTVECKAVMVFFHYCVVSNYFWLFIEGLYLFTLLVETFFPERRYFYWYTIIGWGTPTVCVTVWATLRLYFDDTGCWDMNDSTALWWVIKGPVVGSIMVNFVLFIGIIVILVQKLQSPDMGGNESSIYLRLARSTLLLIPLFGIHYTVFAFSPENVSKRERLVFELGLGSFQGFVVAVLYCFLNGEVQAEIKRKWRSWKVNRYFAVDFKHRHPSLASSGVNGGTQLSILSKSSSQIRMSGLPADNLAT

HVLVMSATRR — total protein (peptide, C57BL/6J mice, male, serum; subcutaneous osmotic pump, 3 mg/kg/day peptide basis, 8 weeks): 4.6 g/dL and 4.7 g/dL
glucagon — splanchnic extraction (isotope dilution; human, type 1 diabetes; intravenous infusion, 0.12 ng/kg/min, 160 to 180 min): 24.6 ± 3.3%
PAALVAC(Mca) (Mca-labelled; Mca = COc1ccc2c(CC(=O)*)cc(=O)oc2c1) — substrate release rate constant (72 kDa type IV collagenase (MMP2, Homo sapiens, UniProt P08253); substrate, fluorescence): 0.07 h⁻¹
heparin sodium — subjects with drug-related AEs (healthy Chinese adult volunteers; continuous intravenous infusion, 8 IU/kg/h, 5 days): 100%
DPDPE — retention time (RP-HPLC; HALO RP-amide column; 25 µM, acetic acid/methanol, 25 min gradient): 15.4 min
phosphatidylinositol bisphosphate — long open time constant (ATP-sensitive inward rectifier potassium channel 11 (Homo sapiens, UniProt Q14654); single-channel patch clamp; concentration not given, reactivation after rundown): 3.7 ± 1.1 ms
Ac-APPIPPPRRKR-NH2 (N-acetyl, C-amide) — asymmetric stretch frequency (Tyrosine-protein kinase Fyn, SH3 domain (FYN, Homo sapiens, UniProt P06241); binding, C-D FTIR probe; peptide; 4 mM, pH 7.0, band C, FYN complex, peptide P-2): 2254.6 ± 0.7 cm⁻¹
cGMP — −TΔS (Potassium/sodium hyperpolarization-activated cyclic nucleotide-gated channel 2, C-terminal region (Hcn2, Mus musculus, UniProt O88703, R591A); binding, ITC): 426000 kcal/mol
IDLSDVELDDLGKDEL — percentile rank of IC50 (HLA-DRA/HLA-DRB1; binding, radiolabeled peptide competition; peptide): 92.4%
Ac-AEDDLPTVELQGVVPRGVNL-NH2 (N-acetyl, C-amide) — Km (F2; substrate, HPLC hydrolysis; pH 7.4, 25 °C, 0.1% PEG, 100 mM NaCl): 300 ± 54 µM
YRVAAA — change in Tm (VSR1, PA domain (Arabidopsis thaliana, UniProt P93026); differential scanning fluorimetry; peptide; 5 mM, pH 7.1): increased
maxadilan — Emax (Pituitary adenylate cyclase-activating polypeptide type I receptor (ADCYAP1R1, Homo sapiens, UniProt P41586, del89-109); calcium mobilization, agonist, Fluo-8 AM; COS-7; AUC over 2 min): 78 ± 2%
nonaarginine — Kd (PorA peptide pore; peptide binding, planar bilayer single-channel recording; pH 7.4, +35 mV, trans side, 150 mM KCl): 7.03 ± 0.7 µM
Ac-TFELQGGGPRGVNL-NH2 (N-acetyl, C-amide) — kcat (F2; substrate, HPLC; pH 7.4, 25 °C, together with: thrombin 2.2 nM): 28.6 ± 3.7 s⁻¹
Ivermectin — activity (Nuclear receptor subfamily 1 group I member 3 (Homo sapiens, UniProt Q14994); cell-based; concentration not given): inactive
tetrahydrofolate — Vmax (Serine hydroxymethyltransferase, mitochondrial (SHMT2, Homo sapiens, UniProt P34897, Y105A); enzyme activity, substrate, MTHFD2-coupled NADH fluorescence; Y105A mutant): 44 fluorescence units/s
insulin human — mRNA fold change (item: GFPT1; mouse, EcoHIV-infected, brain; ip, dose not given, together with: insulin; baseline: PBS-treated): 1.08
ginkgolide B — onset time constant (Rdl (Drosophila melanogaster, UniProt P25123); inhibition of GABA response, antagonist; Drosophila; EC50 GABA, compound at IC50): 8.4 ± 1.7 s
PPAENSSAPEAEQGGAE — IC50 (HLA-DRA/HLA-DRB1; binding, inhibitor, radiolabelled peptide competition; peptide; together with: radiolabelled peptide): 50 µM
TLEPN — inhibition (Angiotensin-converting enzyme (ACE, Homo sapiens, UniProt P12821); enzyme activity, inhibitor, WST; peptide; 16.0 mM): ~34.4%
benzalkonium bromide — IC50 (Acetylcholinesterase (ACHE, Homo sapiens, UniProt P22303); enzyme activity, inhibitor): inactive
IETVDNKTSFRAY — translocated peptide size (Antigen peptide transporter 1/Antigen peptide transporter 2 (Homo sapiens, UniProt Q03518+Q03519); Edman degradation; peptide, B-LCL 721 cells): 10 to 13 amino acids
evodiamine — efficacy (Cholinesterase (BCHE, Homo sapiens, UniProt P06276); inhibitor; Triton): -65.8 ± 1.38%
Levobupivacaine — mean open time (Sodium channel protein type 4 alpha, BTX-activated (Oryctolagus cuniculus, UniProt G1SLL9); channel gating): 173 ms
hexaarginine — Kd (PorA peptide pore; peptide binding, planar bilayer single-channel recording; pH 7.4, -15 mV, cis side, 150 mM KCl): 9.61 ± 1 µM
Cbz-Arg-Arg-{AMC} (Z-RR-AMC; Cbz = O=C(OCc1ccccc1)*; AMC = Cc1cc(=O)oc2cc(N*)ccc12) — optimal CaCl2 concentration (Metacaspase-2 (MCA2, Trypanosoma brucei brucei, UniProt Q585F3); kcat/KM, substrate): 250 µM
aspterric acid — inhibition (Arabidopsis thaliana; hypocotyl length; Col-0, seedlings; 50 µg/mL, half-strength MS): 99.4%
5′-methylthioadenosine — inhibition (DNA adenine methyltransferase CamA (Clostridioides difficile, UniProt Q183J3); enzyme activity; concentration not given): > 50%
FYGQTLGQAQAHSQEQ — percentile rank of IC50 (HLA-DRA/HLA-DRB1; binding, radiolabeled peptide competition; peptide): 92.4%
Polymyxin B — survival (mouse; intraperitoneal, 40 mg/kg single dose, day 4): 0%

Some of these lines once more:
Levobupivacaine — mean open time (Sodium channel protein type 4 alpha, BTX-activated (Oryctolagus cuniculus, UniProt G1SLL9); channel gating): 173 ms
hexaarginine — Kd (PorA peptide pore; peptide binding, planar bilayer single-channel recording; pH 7.4, -15 mV, cis side, 150 mM KCl): 9.61 ± 1 µM
